Assay results collected from several papers.
Parts stem from different laboratories: compare values within a part only.

Sample 1 — method: universal PBM; molecule type: double-stranded DNA, one strand shown; medium: in vitro; tested at: not given; direction: higher = stronger binding
Target: Sal-like protein 4, full length isoform B (SALL4, Homo sapiens, UniProt Q9UJQ4-2, residues 1-616)
Setting: 8-mer, flanks averaged, mean of replicates
| Oligonucleotide | E-score |
| --- | --- |
| GCAACTAA | 0.00066 |
| AAAGGAGA | 0.00487 |
| ATAGTACA | 0.119 |
| ACGTACTA | 0.14 |
| AAGAACAT | 0.234 |
| CAGCCATC | -0.235 |
| GACTAAGA | -0.0964 |
| GCAGGTCA | -0.177 |
| AGTCCCAC | -0.11 |
| GCGTGTAC | -0.0787 |
| AGTTAGAC | 0.0554 |
| CATTTTGC | 0.206 |
| ACTTGCTA | 0.0093 |
| AATATCTA | 0.375 |
| CCGGTTCG | -0.315 |
| AACTAGAC | 0.104 |

Sample 2 — method: protein-binding microarray; molecule type: double-stranded DNA, one strand shown; medium: in vitro; tested at: not given; direction: higher = stronger binding
Target: Protein C-ets-1 (ETS1, Homo sapiens, UniProt P14921, residues 1-441, K379A, full length assumed)
Setting: k-mer, scored over probes, only values ≥0.25
Construct (chain): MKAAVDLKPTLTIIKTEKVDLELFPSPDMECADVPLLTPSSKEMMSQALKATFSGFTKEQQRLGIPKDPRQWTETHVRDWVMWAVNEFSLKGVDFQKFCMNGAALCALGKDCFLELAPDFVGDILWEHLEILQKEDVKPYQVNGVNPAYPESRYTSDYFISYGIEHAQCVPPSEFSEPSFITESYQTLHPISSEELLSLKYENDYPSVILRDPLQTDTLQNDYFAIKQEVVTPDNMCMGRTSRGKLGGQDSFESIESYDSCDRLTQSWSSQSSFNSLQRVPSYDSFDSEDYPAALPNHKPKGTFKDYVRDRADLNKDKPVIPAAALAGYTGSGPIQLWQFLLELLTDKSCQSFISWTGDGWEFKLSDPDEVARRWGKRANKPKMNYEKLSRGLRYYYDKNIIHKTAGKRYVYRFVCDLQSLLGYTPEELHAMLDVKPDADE
| Oligonucleotide | E-score |
| --- | --- |
| CGACGGCG | 0.274 |
| CAATACCG | 0.294 |
| CGATATTA | 0.262 |
| ACATATTC | 0.272 |
| CCCATATA | 0.254 |
| ACCGGGGC | 0.454 |
| ATAATTGC | 0.261 |
| ACCGGTAA | 0.462 |
| TACCGGAA | 0.484 |
| CCGACATA | 0.252 |
| TACGGTAA | 0.262 |
| CCGGTAAC | 0.425 |
| GTGTGTAA | 0.263 |
| CGGCGCGC | 0.27 |
| CAATAATA | 0.265 |
| CCGGTGCA | 0.406 |
| AACATACA | 0.26 |
| GACCGTAC | 0.255 |
| CACCGGAC | 0.364 |
| TCACACCA | 0.263 |
| CTACCGGA | 0.35 |
| GTACTATA | 0.285 |
| CGCCGGTC | 0.362 |
| TACCGGTA | 0.475 |
| CATCCGGA | 0.302 |

Sample 3 — method: protein binding microarray; molecule type: double-stranded DNA, one strand shown; medium: in vitro; tested at: not given; relative to: not given; direction: higher = stronger binding
Target: Histone acetyltransferase KAT6A, winged helix 2, GST fusion (KAT6A, Homo sapiens, UniProt Q92794, residues 85-181)
Setting: 8-mer, flanks averaged, mean of 2 arrays, mostly near background
Residues (chain): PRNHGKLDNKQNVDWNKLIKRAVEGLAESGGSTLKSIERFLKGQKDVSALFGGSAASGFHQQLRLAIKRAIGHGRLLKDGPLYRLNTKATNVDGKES
| Oligonucleotide | E-score |
| --- | --- |
| ATCCTTTG | -0.121 |
| GTCCCCTA | -0.00298 |
| CAGAGCTA | -0.119 |
| CGTCGGCA | 0.0575 |
| GAAATTGC | 0.0519 |
| GAATAGCA | 0.0326 |
| ATATTTTG | 0.174 |
| TCTAGACA | -0.0193 |
| TACTGATA | 0.0535 |
| GCTCTGAA | 0.0574 |
| ATACGATG | -0.0275 |
| ATGTTGTC | -0.277 |
| ACAACCCA | -0.0809 |
| GCCATACA | -0.14 |
| AGTCTTTC | -0.138 |
| AGGGAGGC | 0.0842 |
| CCCTTGTA | -0.0839 |
| CGTGATAC | -0.0455 |
| CTACTGTC | -0.102 |
| AGTGGTCA | -0.122 |
| CTGTGTTA | -0.14 |
| GACCGCCC | 0.124 |
| GTCGGTAA | -0.0962 |
| TAGAGGAA | -0.0577 |
| CCCACACA | 0.0763 |

Sample 4 — method: RNA Bind-n-Seq; molecule type: RNA; medium: in vitro; tested at: 365 nM; relative to: no-protein control; direction: higher = stronger binding
Target: RNA binding protein fox-1 homolog 2, RRM domain, GST-SBP tag (RBFOX2, Homo sapiens, UniProt O43251-10, residues 100-194)
Setting: natural RNA segment, single round, ends assumed
Constant ends, left off below: GGGAGUUCUACAGUCCGACGAUC … UGGAAUUCUCGGGUGCCAA
Construct (chain): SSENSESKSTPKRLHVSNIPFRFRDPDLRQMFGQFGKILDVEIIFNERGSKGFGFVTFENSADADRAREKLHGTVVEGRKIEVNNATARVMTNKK
| Oligonucleotide | RBNS enrichment (R) |
| --- | --- |
| UGUAACUUGCAAAAUGCAUAAACAUCCGACAGUUUGAAUUAAUAGUGUUGAUGGAAGAAAUCAUUUUUAAUGUGUACUGUAAAACUUGAAAUACUCAGGAGCUGAGUGAG | 0.594 |
| UAGUCAUGACUGCAAAGAGAGAGAAUAAACUGCCCGCUCAGAAGAUAUGUAAUUUGUAUUGUUGUAUAGUUUUAUUGAUUACACUGAUUUAUUCUACCCUAUUUUAUAAU | 0.761 |
| CCGAAGUCAGCCUGCUCUACUACUAACAAACAGGCCUGCUGCUAGAUGAUCUCUAAUGACCAAUGGGGCUUCCUUUCUAUAGGGAGGAUACCAGCAGGCCCUUAAGCCUU | 0.331 |
| GGGUUGGUUGCAGUUGAGUUGUUGUCUGGCCGUCUGUAUUUGGAUCUUUAACUGUACUUUGCCUGGCGCUGUGCGCAAGGUCUGAAACCUUAUUGCUAGUACCUAGAAAC | 0.876 |
| GUUCCCAAUCAGCCAUUACCAUCUCCACCUGCCGCCAGCCACCAAAUCACCAGCAGGAGGGUCUGCCUGCCACUGGGAGCCUUGGGGAGGCUGGGAGCCUUAGAGAAACG | 0.387 |
| ACAGUUCUCUCUGGAGGCUUUGUGGGAUUGGGAGAGCUGCUACAGAGGAGUACCAUGAAAGCACUGAGGAAACAUUUCUUCAUCGUGUUACACUGACAACCCACAUCUUG | 0.199 |
| GGCCCUCACUGAAAGAGCCCAUGCCUGCCUUCCUCCUUUCAUCGCCUCUCUAGAGCCCCCAAAGUCAGGCAGCAGCUGGAGUAGUUACAUUGUCAUCAUCUUUUUUUUUG | 1.38 |
| UUUUGCUGGUAAUUUCAGUAACUGUUUUCAGCAAGAAUAUUACAUGAGCUCUAAAGUUAUUAAGCAGUUUUAUGUUCGUUUUGUGUUUAGGGAGCUUUUUAAAACACUUC | 0.679 |

Sample 5 — method: RNA Bind-n-Seq; molecule type: RNA; medium: in vitro; tested at: not given; relative to: input RNA pool; direction: higher = stronger binding
Target: RING finger protein unkempt homolog, zinc fingers 1-6, GST-SBP tag (UNK, Homo sapiens, UniProt Q9C0B0, residues 30-357)
Setting: RNA with constant flanks, human and mouse sites, ends assumed
Constant ends, left off below: GGGAGUUCUACAGUCCGACGAUC … CAACAGAGGAUUGAGCAUCA
Residues (chain): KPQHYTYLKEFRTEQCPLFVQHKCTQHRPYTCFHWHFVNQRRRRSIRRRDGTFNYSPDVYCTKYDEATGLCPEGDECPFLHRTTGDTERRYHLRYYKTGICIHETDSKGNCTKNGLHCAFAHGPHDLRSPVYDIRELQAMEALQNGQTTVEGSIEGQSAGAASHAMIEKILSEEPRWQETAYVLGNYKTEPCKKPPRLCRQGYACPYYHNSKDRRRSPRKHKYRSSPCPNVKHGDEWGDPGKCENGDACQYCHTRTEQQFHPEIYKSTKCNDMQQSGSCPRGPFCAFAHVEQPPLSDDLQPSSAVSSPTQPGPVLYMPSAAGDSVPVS
| Oligonucleotide | bound/input enrichment [ratio] |
| --- | --- |
| GCCUGGAGCAAGGUGGAGGGUGCAGAGGGGCUGGGGUAGGGCAUGUAGGAGGGAGGUGGGUGGGUCAGGUGAGUGGAAGGGGUGUUGUAUAUUGUGUUGAUGACGUACGUUAUUUCCAUG | 0.732 |
| AAGUACAAUGAUCCUAUCUAUGUUAAACUAGAGAAGUUAGACAUCAUGAUUCGUCUUGCAUCCCAAGCCAACAUUGCUCAGGUUCUGGCGGAGCUGAAGGAAUAUGCCACUGAAGUUGAU | 0.0962 |
| AAGAUUGAAGGAUUUGAGGUACUGAAGAAAGUGAAGACUCUCUGCCUCCGCCAAAAUUUAAUUAAAUGCAUUGAGAAUCUGGAGGAGCUACAGAGUCUUCGAGAGCUGGAUCUUUACGAC | 0.123 |
| UUGCCUGAAAAUGAAGAUGAAUUGGAGAGCACCAAUAGACGCUAUACCAAGAGAGACUGUAGCACUUUUCUCAGAACUAGCGAGACGGGCAUUGUGGAUCAGGUUAUGGUAACUCUCAAU | 0.766 |
| CAUUUGAUGUAUGCGGUCAGAGAAGAAGUGGAGGUCCUCAAAGAGCAAAUCAAAGAACUAAUAGAGAAAAAUUCCCAGCUGGAGCAGGAGAACAAUCUGCUGAAGACACUGGCCAGUCCU | 0.496 |
| GACGGACAUUUGAUAAACACAGGACAAGCUAUGGAUAGUUCAGACAAUUCAGAAAGGACUGGUGAGCGGGUUUCUCCUGAUAUUAAUGAAACUAAUACUGAUACAGAUUUAUUUGUGCCA | 0.429 |
| GCUUCUGGAUCUAGAUCCAGGAAGUCACAUUCUAAGCAAAUGCCUCGGCCUGUUAAAGGGUUUAGUUGCUUCAGUUCAUGAAUGAUCCUAUCCCAGCCUACUCCUCUGUGGCCUUGACGC | 0.0734 |
| CUACCCCCAUUGCAGGAUUGGACAAUACCAUCUUAUUCUUGAGAGGCUGUAAGGAGCUUGGCCUUAAAGAAUCUCAACUCUUUGACCCGAGUGACCUCCAGGAUACCUCCAACAGGGUCA | 0.116 |

A few entries again (sample 4):
| Oligonucleotide | RBNS enrichment (R) |
| --- | --- |
| GGGUUGGUUGCAGUUGAGUUGUUGUCUGGCCGUCUGUAUUUGGAUCUUUAACUGUACUUUGCCUGGCGCUGUGCGCAAGGUCUGAAACCUUAUUGCUAGUACCUAGAAAC | 0.876 |
| UUUUGCUGGUAAUUUCAGUAACUGUUUUCAGCAAGAAUAUUACAUGAGCUCUAAAGUUAUUAAGCAGUUUUAUGUUCGUUUUGUGUUUAGGGAGCUUUUUAAAACACUUC | 0.679 |
| ACAGUUCUCUCUGGAGGCUUUGUGGGAUUGGGAGAGCUGCUACAGAGGAGUACCAUGAAAGCACUGAGGAAACAUUUCUUCAUCGUGUUACACUGACAACCCACAUCUUG | 0.199 |
| CCGAAGUCAGCCUGCUCUACUACUAACAAACAGGCCUGCUGCUAGAUGAUCUCUAAUGACCAAUGGGGCUUCCUUUCUAUAGGGAGGAUACCAGCAGGCCCUUAAGCCUU | 0.331 |
| UGUAACUUGCAAAAUGCAUAAACAUCCGACAGUUUGAAUUAAUAGUGUUGAUGGAAGAAAUCAUUUUUAAUGUGUACUGUAAAACUUGAAAUACUCAGGAGCUGAGUGAG | 0.594 |
| UAGUCAUGACUGCAAAGAGAGAGAAUAAACUGCCCGCUCAGAAGAUAUGUAAUUUGUAUUGUUGUAUAGUUUUAUUGAUUACACUGAUUUAUUCUACCCUAUUUUAUAAU | 0.761 |
| GGCCCUCACUGAAAGAGCCCAUGCCUGCCUUCCUCCUUUCAUCGCCUCUCUAGAGCCCCCAAAGUCAGGCAGCAGCUGGAGUAGUUACAUUGUCAUCAUCUUUUUUUUUG | 1.38 |
| GUUCCCAAUCAGCCAUUACCAUCUCCACCUGCCGCCAGCCACCAAAUCACCAGCAGGAGGGUCUGCCUGCCACUGGGAGCCUUGGGGAGGCUGGGAGCCUUAGAGAAACG | 0.387 |
